Assay results of several laboratories.
Each numbered part is a random draw from the data of one study; scales do not carry over between parts.
Chain of UniProt Q13557 (whole entry, looked up): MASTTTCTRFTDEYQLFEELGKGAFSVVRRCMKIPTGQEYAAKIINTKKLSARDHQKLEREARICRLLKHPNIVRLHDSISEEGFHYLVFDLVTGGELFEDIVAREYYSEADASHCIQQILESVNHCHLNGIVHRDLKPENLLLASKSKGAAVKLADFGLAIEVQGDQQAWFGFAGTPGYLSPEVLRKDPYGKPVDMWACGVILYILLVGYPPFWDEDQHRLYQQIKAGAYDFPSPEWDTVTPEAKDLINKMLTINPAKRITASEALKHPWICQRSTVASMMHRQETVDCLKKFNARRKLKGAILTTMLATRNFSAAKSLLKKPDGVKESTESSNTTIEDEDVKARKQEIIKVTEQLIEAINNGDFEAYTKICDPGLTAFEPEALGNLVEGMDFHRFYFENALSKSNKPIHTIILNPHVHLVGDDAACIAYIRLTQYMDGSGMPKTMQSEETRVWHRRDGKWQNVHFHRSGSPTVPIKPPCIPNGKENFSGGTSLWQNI
Chain of UniProt Q9UHD2 (whole entry, looked up): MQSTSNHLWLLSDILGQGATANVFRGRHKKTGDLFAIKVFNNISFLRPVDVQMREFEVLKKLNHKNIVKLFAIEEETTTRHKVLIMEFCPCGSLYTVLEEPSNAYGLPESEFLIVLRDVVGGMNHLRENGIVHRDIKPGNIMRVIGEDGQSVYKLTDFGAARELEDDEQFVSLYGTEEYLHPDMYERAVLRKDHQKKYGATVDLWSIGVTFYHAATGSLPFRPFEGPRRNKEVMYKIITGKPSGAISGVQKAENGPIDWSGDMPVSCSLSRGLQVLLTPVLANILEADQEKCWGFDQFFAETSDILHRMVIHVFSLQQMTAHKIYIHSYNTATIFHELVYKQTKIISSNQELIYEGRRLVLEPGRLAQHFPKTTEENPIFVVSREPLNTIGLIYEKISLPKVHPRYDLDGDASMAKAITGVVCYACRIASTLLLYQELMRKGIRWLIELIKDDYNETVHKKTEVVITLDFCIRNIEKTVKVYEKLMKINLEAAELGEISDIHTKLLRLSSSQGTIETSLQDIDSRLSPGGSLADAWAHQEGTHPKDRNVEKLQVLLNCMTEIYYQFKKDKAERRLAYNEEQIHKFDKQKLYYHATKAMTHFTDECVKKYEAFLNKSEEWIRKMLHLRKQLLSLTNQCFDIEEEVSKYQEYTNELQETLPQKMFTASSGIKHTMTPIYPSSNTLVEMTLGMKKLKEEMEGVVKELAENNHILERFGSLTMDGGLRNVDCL
Chain of UniProt P07333 (whole entry, looked up): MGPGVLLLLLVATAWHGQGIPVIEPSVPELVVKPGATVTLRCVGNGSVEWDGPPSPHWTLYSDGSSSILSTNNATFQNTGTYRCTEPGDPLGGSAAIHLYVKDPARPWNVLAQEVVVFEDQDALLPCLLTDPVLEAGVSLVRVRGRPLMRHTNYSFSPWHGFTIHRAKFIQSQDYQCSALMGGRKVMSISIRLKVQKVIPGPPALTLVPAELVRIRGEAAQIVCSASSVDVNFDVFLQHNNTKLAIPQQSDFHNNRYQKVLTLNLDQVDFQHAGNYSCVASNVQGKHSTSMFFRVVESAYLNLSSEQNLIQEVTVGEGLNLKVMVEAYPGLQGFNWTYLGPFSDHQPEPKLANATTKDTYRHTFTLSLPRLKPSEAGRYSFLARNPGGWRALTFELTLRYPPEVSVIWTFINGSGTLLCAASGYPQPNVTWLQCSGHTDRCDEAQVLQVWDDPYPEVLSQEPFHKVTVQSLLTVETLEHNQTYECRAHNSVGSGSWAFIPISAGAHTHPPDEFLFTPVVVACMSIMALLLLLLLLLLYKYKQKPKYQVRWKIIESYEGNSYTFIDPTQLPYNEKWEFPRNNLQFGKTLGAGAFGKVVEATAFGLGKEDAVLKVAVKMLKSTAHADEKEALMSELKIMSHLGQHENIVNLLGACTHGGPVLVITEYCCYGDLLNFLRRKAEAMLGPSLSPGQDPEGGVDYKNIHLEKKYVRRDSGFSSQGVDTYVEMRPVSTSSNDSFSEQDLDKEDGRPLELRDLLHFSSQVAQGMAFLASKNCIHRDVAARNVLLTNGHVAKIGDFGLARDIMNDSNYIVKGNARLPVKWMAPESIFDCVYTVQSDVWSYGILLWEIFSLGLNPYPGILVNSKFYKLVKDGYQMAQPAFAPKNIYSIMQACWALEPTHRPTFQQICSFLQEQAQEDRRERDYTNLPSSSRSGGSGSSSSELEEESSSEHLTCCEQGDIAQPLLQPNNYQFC
Chain of UniProt O94804 (whole entry, looked up): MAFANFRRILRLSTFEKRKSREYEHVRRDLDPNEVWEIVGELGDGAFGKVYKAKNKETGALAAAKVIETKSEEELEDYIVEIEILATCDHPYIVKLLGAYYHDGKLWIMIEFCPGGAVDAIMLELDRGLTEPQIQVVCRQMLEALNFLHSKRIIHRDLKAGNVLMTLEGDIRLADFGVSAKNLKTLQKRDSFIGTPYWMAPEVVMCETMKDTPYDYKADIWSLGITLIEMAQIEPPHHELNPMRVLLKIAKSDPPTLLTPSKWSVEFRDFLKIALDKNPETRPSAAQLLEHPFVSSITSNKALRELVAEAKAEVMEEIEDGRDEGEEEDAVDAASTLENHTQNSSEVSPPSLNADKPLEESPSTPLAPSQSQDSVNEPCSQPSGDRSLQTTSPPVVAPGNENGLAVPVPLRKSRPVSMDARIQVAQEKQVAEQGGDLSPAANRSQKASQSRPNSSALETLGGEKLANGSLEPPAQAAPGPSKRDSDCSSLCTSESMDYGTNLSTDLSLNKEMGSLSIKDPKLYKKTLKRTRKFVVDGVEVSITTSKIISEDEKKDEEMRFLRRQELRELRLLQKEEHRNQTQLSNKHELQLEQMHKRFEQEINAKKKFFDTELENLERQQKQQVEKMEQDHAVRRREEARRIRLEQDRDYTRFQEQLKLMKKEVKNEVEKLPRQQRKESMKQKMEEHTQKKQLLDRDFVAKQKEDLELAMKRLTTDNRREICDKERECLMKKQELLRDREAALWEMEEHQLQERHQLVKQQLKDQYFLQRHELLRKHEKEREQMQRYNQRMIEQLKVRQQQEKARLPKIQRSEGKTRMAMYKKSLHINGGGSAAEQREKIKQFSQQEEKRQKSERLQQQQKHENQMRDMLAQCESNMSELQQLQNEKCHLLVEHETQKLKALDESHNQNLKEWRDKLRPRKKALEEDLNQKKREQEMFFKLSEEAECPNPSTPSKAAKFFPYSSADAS
Chain of UniProt Q14164 (whole entry, looked up): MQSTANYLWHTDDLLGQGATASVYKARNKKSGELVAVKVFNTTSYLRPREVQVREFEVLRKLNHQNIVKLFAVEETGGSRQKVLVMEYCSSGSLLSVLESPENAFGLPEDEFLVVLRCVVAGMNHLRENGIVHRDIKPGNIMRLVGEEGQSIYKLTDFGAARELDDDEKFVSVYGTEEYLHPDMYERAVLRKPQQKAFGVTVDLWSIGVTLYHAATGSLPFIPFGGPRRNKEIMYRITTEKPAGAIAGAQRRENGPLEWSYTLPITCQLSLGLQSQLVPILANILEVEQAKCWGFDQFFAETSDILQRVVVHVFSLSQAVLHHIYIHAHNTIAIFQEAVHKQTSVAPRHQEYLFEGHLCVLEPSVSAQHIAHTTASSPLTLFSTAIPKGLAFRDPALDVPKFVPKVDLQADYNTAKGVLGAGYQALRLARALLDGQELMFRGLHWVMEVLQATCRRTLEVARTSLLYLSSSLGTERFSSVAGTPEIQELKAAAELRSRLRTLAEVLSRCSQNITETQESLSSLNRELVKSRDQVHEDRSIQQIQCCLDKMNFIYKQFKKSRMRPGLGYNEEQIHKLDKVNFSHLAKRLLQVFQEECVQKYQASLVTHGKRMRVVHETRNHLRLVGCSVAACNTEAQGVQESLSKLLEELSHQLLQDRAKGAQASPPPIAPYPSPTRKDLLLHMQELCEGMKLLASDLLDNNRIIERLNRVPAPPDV
Chain of UniProt Q9Y2U5 (whole entry, looked up): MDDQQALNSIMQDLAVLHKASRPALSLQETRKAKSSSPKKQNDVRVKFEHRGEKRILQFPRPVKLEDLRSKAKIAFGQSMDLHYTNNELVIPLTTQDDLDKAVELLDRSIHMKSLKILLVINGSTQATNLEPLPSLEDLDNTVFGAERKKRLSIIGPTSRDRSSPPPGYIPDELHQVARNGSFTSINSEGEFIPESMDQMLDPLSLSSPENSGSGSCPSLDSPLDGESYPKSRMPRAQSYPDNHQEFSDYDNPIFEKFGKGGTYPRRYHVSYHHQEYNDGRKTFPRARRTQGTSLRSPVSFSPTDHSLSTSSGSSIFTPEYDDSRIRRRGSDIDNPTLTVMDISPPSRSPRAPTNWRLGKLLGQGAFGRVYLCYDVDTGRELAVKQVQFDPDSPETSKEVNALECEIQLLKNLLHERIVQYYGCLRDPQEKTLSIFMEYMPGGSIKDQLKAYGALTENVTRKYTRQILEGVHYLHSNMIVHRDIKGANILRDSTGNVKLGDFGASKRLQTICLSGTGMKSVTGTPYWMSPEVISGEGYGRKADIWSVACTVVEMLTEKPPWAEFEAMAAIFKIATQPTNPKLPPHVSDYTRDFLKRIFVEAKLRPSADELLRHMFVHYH
Chain of UniProt P36897 (whole entry, looked up): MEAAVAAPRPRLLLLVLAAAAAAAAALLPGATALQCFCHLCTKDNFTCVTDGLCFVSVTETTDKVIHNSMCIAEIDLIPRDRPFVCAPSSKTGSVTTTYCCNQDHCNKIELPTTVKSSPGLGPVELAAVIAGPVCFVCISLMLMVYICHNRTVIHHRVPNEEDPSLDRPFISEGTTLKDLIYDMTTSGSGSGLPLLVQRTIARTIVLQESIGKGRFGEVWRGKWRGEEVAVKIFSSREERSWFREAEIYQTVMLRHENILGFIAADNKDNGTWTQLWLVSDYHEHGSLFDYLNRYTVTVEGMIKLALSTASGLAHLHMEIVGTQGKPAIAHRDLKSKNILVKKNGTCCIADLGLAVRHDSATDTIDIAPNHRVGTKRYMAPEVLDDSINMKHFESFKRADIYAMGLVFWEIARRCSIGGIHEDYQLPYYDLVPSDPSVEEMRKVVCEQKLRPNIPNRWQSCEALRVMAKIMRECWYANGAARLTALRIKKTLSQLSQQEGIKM

Study 1 — cell line: Huh-7; tested at: 10 µM; time: 24 h
Compound	viability [%]
Nc1nc(N)c2nc(-c3ccccc3)c(N)nc2n1	75.3
O=C(O)c1cc(/N=N/c2ccc(S(=O)(=O)Nc3ccccn3)cc2)ccc1O	105
CC(C)[C@H](N)C(=O)OCCOCn1cnc2c(=O)[nH]c(N)nc21	97.6
CO[C@H]1/C=C/O[C@@]2(C)Oc3c(C)c(O)c4c(O)c(c5c(nc6cc(C)ccn65)c4c3C2=O)NC(=O)/C(C)=C\C=C\[C@H](C)[C@H](O)[C@@H](C)[C@@H](O)[C@@H](C)[C@H](OC(C)=O)[C@@H]1C	93.9
C[C@]12C=CC(=O)C=C1CC[C@H]1[C@@H]3C[C@@H](O)[C@](O)(C(=O)CO)[C@@]3(C)C[C@H](O)[C@@]12F	102

Study 2 — effect on: cell-free assay; method: competition with immobilised ligand; tested at: 0.1 µM
Compound: C[C@@H]1CN(c2cc(-c3n[nH]c4ccc(OC5(C)CC5)cc34)ncn2)C[C@H](C)O1
target	remaining binding
MAP3K6 (Homo sapiens, UniProt O95382)	59%
CSF1R (Homo sapiens, UniProt P07333)	91%
FGFR3 (Homo sapiens, UniProt P22607)	74%
TBK1 (Homo sapiens, UniProt Q9UHD2)	68%
MAP3K2 (Homo sapiens, UniProt Q9Y2U5)	73%
EGFR (Homo sapiens, UniProt P00533, L861Q)	50%

Study 3 — effect on: enzyme activity; action: inhibitor; tested at: 0.5 µM; baseline: control
Compound: Oc1ccc(-c2nc(-c3ccncc3)c(-c3ccc(F)cc3)[nH]2)cc1
target	remaining activity [%]
STK10 (Homo sapiens, UniProt O94804)	85
CAMK2D (Homo sapiens, UniProt Q13557)	88.1
DAPK1 (Homo sapiens, UniProt P53355)	95
Protein kinase C beta type, isoform beta-I (PRKCB, Homo sapiens, UniProt P05771)	63.7
PRKACA (Homo sapiens, UniProt P17612)	84.3
IKBKE (Homo sapiens, UniProt Q14164)	101
cGMP-dependent protein kinase 1, isoform beta (PRKG1, Homo sapiens, UniProt Q13976)	87
CAMKK2 (Homo sapiens, UniProt Q96RR4)	118
TGFBR1 (Homo sapiens, UniProt P36897)	108
Tyrosine-protein kinase Lyn, isoform B (LYN, Homo sapiens, UniProt P07948)	98.4
PRKCA (Homo sapiens, UniProt P17252)	102

Study 4 — method: Phase 2a trial; species: idiopathic pulmonary fibrosis patients
SMILES: CC(C)n1cnc(-c2ccc(F)cc2)c1-c1ncc(C(=O)Nc2ccc(N3CCN(C)CC3)cc2)[nH]1
measured	dose	setting	patients with adverse events [%]
urinary tract infection	30 mg once daily	grade 3 maximum intensity	0
neutrophil count increased	dose not given	grade 2 maximum intensity, all arms	0
gamma-glutamyltransferase increased	60 mg once daily	grade 4 maximum intensity	0
weight increased	60 mg once daily	grade 3 maximum intensity	0
respiratory tract infection	30 mg once daily	grade 3 maximum intensity	0
chest discomfort	30 mg once daily	grade 2 maximum intensity	0

Some of these lines once more (study 3):
target	remaining activity [%]
DAPK1 (Homo sapiens, UniProt P53355)	95
Tyrosine-protein kinase Lyn, isoform B (LYN, Homo sapiens, UniProt P07948)	98.4
